Experimental data collected from several papers.
± marks the error that the study gave.

COC1CN([C@H]2CC[C@H]([C@@]3(C)Oc4c(Cl)cc(C(=O)NCc5c(SC)cc(C)[nH]c5=O)c(C)c4O3)CC2)C1
log2 fold change (RNA-seq, refers to: SGIP1 mouse homolog; mouse, HT-1376 xenograft, whole blood; dose not given; relative to: vehicle): 1.47

COC(=O)C1=C(C)Oc2ccc(Br)cc2C1C(C(C)=O)C(=O)OC (stereo not shown)
LDH release (3T3-L1 adipocytes; IC20, 14 days, adipogenic induction; relative to: untreated): ≤ 120%

CN(C)C(=O)c1ccnc(N2Cc3cn(Cc4cc(F)cc(F)c4)nc3C2)n1
efflux ratio (MDR1-MDCK; relative to: B-A over A-B): 2.1

CCN(CC)CC#CCNc1ccnc2cc(Cl)ccc12
mean revertants (Salmonella typhimurium; mini-Ames test; TA98; 125.0 µg/well, with rat liver S9): 15 revertants/well

CCNc1cc2c(cc1C)C1(c3cc(C)c(NCC)cc3O2)c2ccccc2C(=O)N1N=Cc1c[c-]c(-c2ccccn2)cc1.Cc1c(C)c(-c2ccc(-c3ccccc3)cc2)[c-](C)c1C.[Cl-].[Ir+3]
viable cells (A549; annexin V/PI flow cytometry; 1.0×IC50, 24 h): 61.88 ± 0.2%

C=CC(=O)Nc1cccc(Cn2ncc3cnc(Nc4cnn(CCOC)c4)nc32)c1
percent of control (ERK4 human; binding, KINOMEscan; 100 nM; lower = stronger binding): 100%

O=C1NC2(CC2)COc2ncc(F)cc2[C@H]2COCCN2c2ccn3ncc1c3n2
relative population doubling (CHL; chromosomal aberration test; 150 µg/mL, 4 h, with rat liver S9; relative to: solvent control): 80.9%

CC(C)C[C@@H]1NC(=O)[C@H](CO)NC(=O)[C@H](CC(=O)O)NC(=O)[C@@H]2CCCN2C(=O)[C@H]2CCCN2C(=O)[C@H](C(C)C)NC(=O)[C@H](CC(=O)O)NC(=O)[C@H](CC(N)=O)NC(=O)[C@H](CCCNC(=N)N)NC(=O)[C@H]([C@@H](C)O)NC(=O)[C@H](C(C)C)NC(=O)CCNC(=O)CCNC(=O)[C@H](Cc2ccccc2)NC(=O)[C@H](C(C)C)NC(=O)[C@H](CC(C)C)NC1=O
cytoplasmic peptide amount (HEK293T; subcellular fractionation LC-MS; cytoplasm; 20 µM, 24 h): not detected

O=C1C2CC3CC1CC(C(=O)N1CCN(c4ccc([N+](=O)[O-])c5ncccc45)CC1)(C3)C2
mean revertant colonies (Salmonella typhimurium; Ames test; TA97a; 0.78 µg/well, with S9): 29 colonies/well

CN1CCCNC(=O)c2cccc(c2)C(=O)NCCCN(C)CCCNc2cccc3c2C(=O)c2cccc(c2C3=O)NCCC1
viability (Ca9-22; cell growth or viability, CCK-8; 15 µM, 48 h): 4.39%

CC(C)(O)c1ccn2c(-c3ccc(F)c(-c4ccc(F)cc4C#N)c3)cnc2c1F
mRNA level (HEK-293T stably expressing GABAA receptors; quantitative RT-PCR, refers to: BiP, spliced XBP1, CHOP; 5 µM, 24 h, UPR markers, with: hispidulin 10 µM): no effect

CC(=O)N[C@H](C(=O)N[C@H](C(=O)N[C@@H](CCCNC(=N)N)C(=O)N[C@@H](CC(N)=O)C(=O)N[C@@H](CC(=O)O)C(=O)N[C@H](C(=O)N1CCC[C@@H]1C(=O)N1CCC[C@H]1C(=O)N[C@@H](CC(=O)O)C(=O)N[C@@H](CO)C(=O)N[C@@H](CC(C)C)C(=O)N[C@@H](CC(C)C)C(=O)N[C@H](C(=O)N[C@@H](Cc1ccccc1)C(N)=O)C(C)C)C(C)C)[C@@H](C)O)C(C)C
cytoplasmic peptide amount (HEK293T; subcellular fractionation LC-MS; cytoplasm; 20 µM, 24 h): not detected

CN(C)C(=O)c1cccc(N2Cc3cn(Cc4ccc(F)cc4F)nc3C2)c1
efflux ratio (MDR1-MDCK; relative to: B-A over A-B): 0.7

O=C(OC[C@@]1(O)C(=O)C=C[C@H]2[C@@H]1[C@H]1C=C[C@@H]2C(=O)[C@]1(O)COC(=O)c1ccccc1)c1ccccc1
viability (SW480; MTT; range over 50 to 100 µg/mL): 45.1 to 60.2%

O=C(Nc1cnccc1-c1ccc([18F])cc1)c1ccnc(NC(=O)C2CC2)c1
SUV (PET imaging; FVB/NJ mice, both sexes, brain; intravenous, 120 min post-injection, P-gp inhibited, with: tariquidar 15 mg/kg iv, 2 h before): 0.21

CC1(C)C(NC(=O)C(=NOC2(C(=O)O)CC2)c2csc(N)n2)C(=O)N1OS(=O)(=O)O (stereo not shown)
CC50 (SH-SY5Y; cell growth or viability): > 100 µM

CN(C)C(=O)c1cccc(N2Cc3cn(Cc4ccc(F)cc4)nc3C2)c1
efflux ratio (MDR1-MDCK; relative to: B-A over A-B): 1.4

C=CC(=O)Oc1ccc(OC)c(-c2c[nH]c3ncc(-c4cncc(C(=O)N(C)C)c4)cc23)c1
cytotoxicity (HEK293T; concentration not given): not toxic

CC(=O)N1c2ccc(-c3ccc(CNC(=O)c4cn5cc(-c6cnc(N)nc6)nc(N6CCOCC6)c5n4)cc3)cc2CC[C@@H]1C
cytotoxicity (HS5 stromal cells; concentration not given, 48 h): not toxic

CC(C)OCCOCc1ccc(OCC(O)CN(N=O)C(C)C)cc1 (stereo not shown)
revertant fold increase (Escherichia coli; Ames test; WP2 uvrA; 500 µg/plate, without metabolic activation; relative to: solvent control): 0.8 fold

Nc1ncc(-c2cc(-c3cnn(CC(F)(F)F)c3)ncc2F)nc1C(=O)NC1CNCC(F)C1 (stereo not shown)
remaining binding (FAK; KINOMEscan competition binding; 1 µM; relative to: DMSO control): 100%

Cl.NCc1ccc2c(c1)CN(C1CCC(=O)NC1=O)C2=O (stereo not shown)
minimum viability (SNU-182; CellTiter-Glo; concentration not given, 72 h): 79.8 ± 7.57%

Repeated from above:
C=CC(=O)Nc1cccc(Cn2ncc3cnc(Nc4cnn(CCOC)c4)nc32)c1
percent of control (ERK4 human; binding, KINOMEscan; 100 nM; lower = stronger binding): 100%

O=C1NC2(CC2)COc2ncc(F)cc2[C@H]2COCCN2c2ccn3ncc1c3n2
relative population doubling (CHL; chromosomal aberration test; 150 µg/mL, 4 h, with rat liver S9; relative to: solvent control): 80.9%

CC(C)C[C@@H]1NC(=O)[C@H](CO)NC(=O)[C@H](CC(=O)O)NC(=O)[C@@H]2CCCN2C(=O)[C@H]2CCCN2C(=O)[C@H](C(C)C)NC(=O)[C@H](CC(=O)O)NC(=O)[C@H](CC(N)=O)NC(=O)[C@H](CCCNC(=N)N)NC(=O)[C@H]([C@@H](C)O)NC(=O)[C@H](C(C)C)NC(=O)CCNC(=O)CCNC(=O)[C@H](Cc2ccccc2)NC(=O)[C@H](C(C)C)NC(=O)[C@H](CC(C)C)NC1=O
cytoplasmic peptide amount (HEK293T; subcellular fractionation LC-MS; cytoplasm; 20 µM, 24 h): not detected
